Measurements collected from several papers.
Lines come from different studies, so protocols differ. Several values in a cell are separate wells, animals, samples, runs or records. ± marks the error that the study gave.
GLP1R: Glucagon-like peptide 1 receptor (GLP1R, Homo sapiens, UniProt P43220)
UniProt Q16774, sequence (whole entry, looked up): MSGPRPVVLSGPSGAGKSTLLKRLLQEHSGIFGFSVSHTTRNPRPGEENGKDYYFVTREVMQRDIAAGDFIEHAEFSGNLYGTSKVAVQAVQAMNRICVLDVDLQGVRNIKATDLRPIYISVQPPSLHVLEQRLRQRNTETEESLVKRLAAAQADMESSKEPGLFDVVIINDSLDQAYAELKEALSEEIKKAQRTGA
UniProt Q9UM73, sequence (whole entry, looked up): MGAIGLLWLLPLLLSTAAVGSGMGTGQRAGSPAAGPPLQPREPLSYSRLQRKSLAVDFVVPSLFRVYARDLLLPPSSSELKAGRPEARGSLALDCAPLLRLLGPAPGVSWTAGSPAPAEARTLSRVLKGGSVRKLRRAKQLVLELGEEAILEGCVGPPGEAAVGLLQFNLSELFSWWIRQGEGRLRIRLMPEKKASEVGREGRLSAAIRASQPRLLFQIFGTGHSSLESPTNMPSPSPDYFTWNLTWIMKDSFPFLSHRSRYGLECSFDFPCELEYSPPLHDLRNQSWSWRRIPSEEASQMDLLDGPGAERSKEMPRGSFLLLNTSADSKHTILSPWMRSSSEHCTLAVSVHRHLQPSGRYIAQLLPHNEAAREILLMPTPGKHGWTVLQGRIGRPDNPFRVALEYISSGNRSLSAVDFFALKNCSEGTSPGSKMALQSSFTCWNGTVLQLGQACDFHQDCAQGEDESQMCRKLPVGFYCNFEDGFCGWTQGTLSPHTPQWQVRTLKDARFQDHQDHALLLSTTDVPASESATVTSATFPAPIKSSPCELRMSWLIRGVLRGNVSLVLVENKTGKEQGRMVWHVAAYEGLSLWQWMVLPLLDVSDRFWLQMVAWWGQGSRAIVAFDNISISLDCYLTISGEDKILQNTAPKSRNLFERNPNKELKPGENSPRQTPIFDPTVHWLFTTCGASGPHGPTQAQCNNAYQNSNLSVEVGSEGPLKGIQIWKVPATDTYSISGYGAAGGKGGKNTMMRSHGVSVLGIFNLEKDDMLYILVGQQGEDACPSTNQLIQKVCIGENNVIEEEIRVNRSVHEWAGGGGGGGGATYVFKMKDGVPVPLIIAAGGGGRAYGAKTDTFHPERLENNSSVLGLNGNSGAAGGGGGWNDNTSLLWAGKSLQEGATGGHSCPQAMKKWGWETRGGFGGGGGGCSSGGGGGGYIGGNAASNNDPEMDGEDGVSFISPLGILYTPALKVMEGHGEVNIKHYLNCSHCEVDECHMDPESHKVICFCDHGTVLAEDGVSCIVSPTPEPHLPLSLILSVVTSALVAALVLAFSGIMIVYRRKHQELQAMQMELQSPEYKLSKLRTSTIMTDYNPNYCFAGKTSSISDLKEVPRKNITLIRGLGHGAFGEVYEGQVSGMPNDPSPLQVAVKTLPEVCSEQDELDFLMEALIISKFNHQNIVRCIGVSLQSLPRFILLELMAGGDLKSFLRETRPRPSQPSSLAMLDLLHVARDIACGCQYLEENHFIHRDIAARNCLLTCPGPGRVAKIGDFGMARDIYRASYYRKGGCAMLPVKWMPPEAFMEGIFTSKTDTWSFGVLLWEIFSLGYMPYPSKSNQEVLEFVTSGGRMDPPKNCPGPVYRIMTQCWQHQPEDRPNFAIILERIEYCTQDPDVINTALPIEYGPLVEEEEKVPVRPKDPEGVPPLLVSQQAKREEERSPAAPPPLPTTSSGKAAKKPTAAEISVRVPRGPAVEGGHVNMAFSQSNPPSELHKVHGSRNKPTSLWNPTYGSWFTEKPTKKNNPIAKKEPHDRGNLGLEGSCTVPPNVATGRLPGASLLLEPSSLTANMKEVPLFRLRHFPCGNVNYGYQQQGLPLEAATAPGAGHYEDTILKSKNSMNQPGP
UniProt Q9HC35, sequence (whole entry, looked up): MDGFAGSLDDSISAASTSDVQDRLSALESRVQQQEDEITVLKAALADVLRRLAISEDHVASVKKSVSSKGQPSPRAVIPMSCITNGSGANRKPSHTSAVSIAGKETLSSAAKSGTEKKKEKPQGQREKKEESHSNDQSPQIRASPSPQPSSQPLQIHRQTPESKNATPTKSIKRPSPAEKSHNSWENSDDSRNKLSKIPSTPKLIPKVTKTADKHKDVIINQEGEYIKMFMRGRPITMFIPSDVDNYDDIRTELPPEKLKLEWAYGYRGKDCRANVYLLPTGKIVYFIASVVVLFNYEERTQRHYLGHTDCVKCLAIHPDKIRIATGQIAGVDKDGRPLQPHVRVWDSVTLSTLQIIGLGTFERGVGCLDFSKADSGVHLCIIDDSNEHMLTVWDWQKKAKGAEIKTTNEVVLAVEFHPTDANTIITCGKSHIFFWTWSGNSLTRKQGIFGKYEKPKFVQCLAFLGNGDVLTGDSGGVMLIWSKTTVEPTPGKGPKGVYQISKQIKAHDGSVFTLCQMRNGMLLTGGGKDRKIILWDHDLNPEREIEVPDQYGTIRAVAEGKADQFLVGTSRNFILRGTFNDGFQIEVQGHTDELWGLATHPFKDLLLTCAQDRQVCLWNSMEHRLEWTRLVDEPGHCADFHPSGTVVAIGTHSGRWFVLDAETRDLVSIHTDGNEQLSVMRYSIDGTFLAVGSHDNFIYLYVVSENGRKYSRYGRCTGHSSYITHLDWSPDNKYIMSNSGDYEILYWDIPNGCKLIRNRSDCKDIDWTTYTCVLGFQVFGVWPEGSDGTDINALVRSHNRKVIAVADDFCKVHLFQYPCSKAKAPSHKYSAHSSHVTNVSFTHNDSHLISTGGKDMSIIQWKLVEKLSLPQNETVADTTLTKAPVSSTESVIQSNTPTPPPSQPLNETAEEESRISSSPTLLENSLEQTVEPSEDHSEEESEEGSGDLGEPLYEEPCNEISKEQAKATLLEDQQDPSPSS
UniProt Q64663, sequence (whole entry, unmodified, looked up): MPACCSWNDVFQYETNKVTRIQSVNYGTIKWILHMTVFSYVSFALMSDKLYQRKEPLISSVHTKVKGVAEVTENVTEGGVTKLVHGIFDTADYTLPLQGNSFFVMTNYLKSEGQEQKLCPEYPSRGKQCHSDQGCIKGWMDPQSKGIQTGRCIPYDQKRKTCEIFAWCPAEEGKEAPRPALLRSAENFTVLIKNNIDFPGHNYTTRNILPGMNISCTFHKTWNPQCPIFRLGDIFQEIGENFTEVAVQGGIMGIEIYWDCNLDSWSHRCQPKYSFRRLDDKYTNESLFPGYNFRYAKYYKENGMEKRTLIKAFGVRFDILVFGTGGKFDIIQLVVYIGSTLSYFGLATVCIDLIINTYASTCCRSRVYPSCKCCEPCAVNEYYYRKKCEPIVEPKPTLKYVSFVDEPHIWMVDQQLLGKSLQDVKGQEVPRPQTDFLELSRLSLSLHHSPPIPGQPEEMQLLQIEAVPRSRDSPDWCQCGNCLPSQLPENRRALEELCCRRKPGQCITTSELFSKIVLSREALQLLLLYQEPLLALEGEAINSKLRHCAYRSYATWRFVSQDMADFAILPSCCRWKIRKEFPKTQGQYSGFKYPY
UniProt P11388, sequence (whole entry, looked up): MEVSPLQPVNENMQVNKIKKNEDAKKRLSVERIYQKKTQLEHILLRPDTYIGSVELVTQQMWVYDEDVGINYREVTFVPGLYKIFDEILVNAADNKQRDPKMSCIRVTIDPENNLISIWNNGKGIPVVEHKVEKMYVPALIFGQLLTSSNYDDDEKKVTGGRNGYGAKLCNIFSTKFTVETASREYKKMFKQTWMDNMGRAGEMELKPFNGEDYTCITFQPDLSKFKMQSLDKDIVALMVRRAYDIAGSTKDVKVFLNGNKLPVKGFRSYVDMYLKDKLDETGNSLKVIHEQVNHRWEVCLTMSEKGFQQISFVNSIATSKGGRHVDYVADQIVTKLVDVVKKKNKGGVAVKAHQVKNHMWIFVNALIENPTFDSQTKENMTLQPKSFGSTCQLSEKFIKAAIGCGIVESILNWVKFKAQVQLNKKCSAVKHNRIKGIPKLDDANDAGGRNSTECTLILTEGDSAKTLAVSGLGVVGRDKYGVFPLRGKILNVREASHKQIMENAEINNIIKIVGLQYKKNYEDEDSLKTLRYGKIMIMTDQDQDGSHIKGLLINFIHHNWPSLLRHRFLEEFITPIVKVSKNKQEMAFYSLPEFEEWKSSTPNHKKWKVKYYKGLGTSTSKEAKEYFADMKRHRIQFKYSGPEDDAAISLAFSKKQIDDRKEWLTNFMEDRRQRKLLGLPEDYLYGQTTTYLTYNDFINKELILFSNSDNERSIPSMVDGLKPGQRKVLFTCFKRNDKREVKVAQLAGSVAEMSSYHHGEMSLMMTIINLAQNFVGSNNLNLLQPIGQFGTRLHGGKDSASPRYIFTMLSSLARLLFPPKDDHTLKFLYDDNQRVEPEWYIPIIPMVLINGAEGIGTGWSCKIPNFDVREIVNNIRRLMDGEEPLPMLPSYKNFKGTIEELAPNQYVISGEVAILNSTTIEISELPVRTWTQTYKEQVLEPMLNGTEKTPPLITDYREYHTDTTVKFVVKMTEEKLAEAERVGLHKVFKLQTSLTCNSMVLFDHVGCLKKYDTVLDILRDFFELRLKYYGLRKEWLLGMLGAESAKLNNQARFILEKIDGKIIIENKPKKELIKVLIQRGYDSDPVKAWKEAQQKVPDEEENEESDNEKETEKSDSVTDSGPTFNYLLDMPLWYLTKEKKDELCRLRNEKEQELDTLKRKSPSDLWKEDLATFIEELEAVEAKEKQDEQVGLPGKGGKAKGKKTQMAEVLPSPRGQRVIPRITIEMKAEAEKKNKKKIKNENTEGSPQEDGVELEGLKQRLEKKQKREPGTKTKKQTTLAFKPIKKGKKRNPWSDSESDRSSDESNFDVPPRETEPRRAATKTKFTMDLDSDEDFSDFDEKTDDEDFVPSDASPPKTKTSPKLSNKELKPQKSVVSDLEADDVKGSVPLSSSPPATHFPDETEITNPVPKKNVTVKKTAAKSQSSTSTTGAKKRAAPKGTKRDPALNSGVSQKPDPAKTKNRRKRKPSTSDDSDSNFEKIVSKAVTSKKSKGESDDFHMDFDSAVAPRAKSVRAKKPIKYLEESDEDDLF
UniProt P0A9M2, sequence (whole entry, looked up): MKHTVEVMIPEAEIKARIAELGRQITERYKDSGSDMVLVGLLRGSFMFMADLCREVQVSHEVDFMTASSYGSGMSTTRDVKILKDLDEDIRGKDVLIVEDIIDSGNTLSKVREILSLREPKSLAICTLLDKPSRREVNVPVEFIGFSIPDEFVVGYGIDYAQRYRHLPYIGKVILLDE

SMILES	target or system	test	system	conditions	how to read	measurement	value
Cc1nc(CSc2nc(SCc3ccc(C(C)C)cc3)nc(=O)[nH]2)cs1	TOP2A (Homo sapiens, UniProt P11388)	DNA cleavage	–	15.6 µM, replicate 1	–	linear DNA	0%
C[C@@H]1CCN(C(=O)CCl)[C@@H](C(N)=O)C1	human NEDD9 full length	LC-MS peptide mapping, measured: Cys18	–	50 µM, 18 h	–	cysteine occupancy	58.3%
CC1(C)CN(CCCCC(=O)N[C@@H](CCCCNC(=O)CCCCCCC(=O)NCCCC[C@H](NC(=O)N[C@@H](CCC(=O)O)C(=O)O)C(=O)O)C(=O)O)CC[N]2CC(C)(C)[S][Tc]2(=[O])[S]1 (stereo partly drawn) [technetium-99m labelled]	FOLH1 (Homo sapiens, UniProt Q04609)	saturation binding	LNCaP	–	–	Bmax	9 µmol/mg
COc1cc(-c2cncc3c2CN(C)Cc2cc(N4CCNCC4)ccc2-3)cc(OC)c1OC	STK26 (Homo sapiens, UniProt Q9P289)	kinase activity	–	1 µM, human enzyme, together with: ATP 10 µM	baseline: DMSO control	remaining activity	115%
O=C(CO)NC1C(O)CC(OCC2OC(Oc3ccc([N+](=O)[O-])cc3)C(O)C(O)C2O)(C(=O)O)OC1C(O)C(O)CO (stereo not drawn)	Sialidase-2 (Homo sapiens, UniProt Q9Y3R4)	substrate	–	10 min, pH 5.0, 37 °C	–	kcat	0.28 ± 0.01 s⁻¹
NS(=O)(=O)c1cccc(-c2ccc(C3CCCCC3)cc2)c1	–	liver microsome stability	dog liver microsomes	1 µM	–	hepatic clearance	19 mL/min/kg
CC(=C/C(=O)O)/C=C/C=C(\C)C1C=C2C(C)(C)CCCC2(C)O1 (stereo not drawn)	Rhodopsin (RHO, Homo sapiens, UniProt P08100, T17M)	immunostaining, measured: opsin	COS-7 transfected	0.10 µM, unit not given	baseline: surface over total stained cells	plasma membrane localization	0
COc1cc(Nc2ncc3c(n2)-c2ccc(Cl)cc2C(c2c(F)cccc2OC)=NC3)ccc1C(=O)O	STK23	kinase activity	–	1 µM	–	remaining activity	97%
c1ccc(C(NCc2cccnc2)(c2ccccc2)c2ccccc2)cc1	Potassium voltage-gated channel subfamily KQT member 1, with KCNE1 (KCNQ1, Homo sapiens, UniProt P51787)	IKs peak current, whole-cell patch clamp	tsA201 with KCNQ1-KCNE1 fusion	–	–	Hill coefficient	0.91
O=c1cc(-c2ccc([N+](=O)[O-])cc2)[nH]c2c(-c3ccc(Cl)cc3)c(Cc3ccccc3)nn12	Glucocorticoid modulatory element-binding protein 2 (GMEB2, Homo sapiens, UniProt Q9UKD1)	thermal stability, binder, thermal proteome profiling	RD, cell lysate	50 µM, 0.5% DMSO	baseline: DMSO vehicle	melting temperature shift	7.4 °C
Cc1ccc(-n2nc(C)c3c(N)nc(N)nc32)c(Cl)c1	PIK3CG (Homo sapiens, UniProt P48736)	KinomeScan competition	–	7.5 µM	–	remaining binding	32%
CC[C@H](C)[C@H](NC(=O)[C@H](Cc1ccccc1)NC(=O)[C@H](CCC(=O)O)NC(=O)[C@H](CCCNC(=N)N)NC(=O)[C@H](C)NC(=O)[C@H](C)NC(=O)[C@H](CCC(N)=O)NC(=O)[C@H](CCC(=O)O)NC(=O)[C@H](CCC(=O)O)NC(=O)[C@H](CC(C)C)NC(=O)[C@H](Cc1ccc(O)cc1)NC(=O)[C@H](CO)NC(=O)[C@H](CO)NC(=O)[C@@H](NC(=O)[C@H](CC(=O)O)NC(=O)[C@H](CO)NC(=O)[C@@H](NC(=O)[C@H](Cc1ccccc1)NC(=O)[C@@H](NC(=O)CNC(=O)[C@H](CCC(=O)O)NC(=O)[C@H](C)NC(=O)CCc1cnc[nH]1)[C@@H](C)O)[C@@H](C)O)C(C)C)C(=O)N[C@@H](C)C(=O)N[C@@H](Cc1c[nH]c2ccccc12)C(=O)N[C@@H](CC(C)C)C(=O)N[C@H](C(=O)N[C@@H](CCCNC(=N)N)C(=O)NCC(=O)N[C@@H](CCCNC(=N)N)C(=O)N[C@@H](CCCCNC(=O)COCCOCCNC(=O)COCCOCCNC(=O)CC[C@H](NC(=O)CCCCCCCCCCCCCCCCC(=O)O)C(=O)O)C(=O)NCC(=O)NCC(=O)N[C@@H](CO)C(=O)N[C@@H](CCCCNc1c(NCCCCCN(O)C(=O)CCC(=O)NCCCCCN(O)C(=O)CCC(=O)NCCCCCN(O)C(C)=O)c(=O)c1=O)C(=O)NCC(=O)NCC(=O)N[C@@H](CO)C(=O)N[C@@H](CCCCNc1c(NCCCCCN(O)C(=O)CCC(=O)NCCCCCN(O)C(=O)CCC(=O)NCCCCCN(O)C(C)=O)c(=O)c1=O)C(=O)NCC(=O)NCC(=O)N[C@@H](CO)C(=O)N[C@@H](CCCCNc1c(NCCCCCN(O)C(=O)CCC(=O)NCCCCCN(O)C(=O)CCC(=O)NCCCCCN(O)C(C)=O)c(=O)c1=O)C(=O)NCC(=O)NCC(=O)N[C@@H](CO)C(=O)N[C@@H](CCCCNc1c(NCCCCCN(O)C(=O)CCC(=O)NCCCCCN(O)C(=O)CCC(=O)NCCCCCN(O)C(C)=O)c(=O)c1=O)C(=O)O)C(C)C	GLP1R	agonist, CRE luciferase reporter	BHK cells	Zr-loaded DFO conjugate, together with: 0% HSA	baseline: parent peptide	fold potency loss	10.5
C=CC(=O)N1C/C(=C\c2ccc([N+](=O)[O-])cc2)C(=O)/C(=C/c2ccc([N+](=O)[O-])cc2)C1	NanoBiT HiBiT/LgBiT luciferase	inhibitor, HiBiT luminescence counterscreen	conditioned medium only	5 µM, 24 h	baseline: vehicle	luminescence signal reduction	-5.82%
Nc1nc2c(ncn2[C@@H]2O[C@H](COP(=O)(O)O)[C@@H](O)[C@H]2O)c(=O)[nH]1	GUK1 (Homo sapiens, UniProt Q16774)	enzyme activity, NADH-coupled	–	62.5 µM, together with: KCl 10 mM	–	reaction velocity	0.0656 µM/s and 0.0591 µM/s and 0.0741 µM/s
Nc1ncnc2c1ncn2[C@@H]1O[C@H](COP(=O)(O)OP(=O)(O)OP(=O)(O)O)[C@@H](O)[C@H]1O	P2X purinoceptor 7 (P2rx7, Rattus norvegicus, UniProt Q64663, Q143A/R125A)	ion current, agonist, two-electrode voltage clamp	Xenopus laevis oocytes	19 µM	baseline: highest concentration response	normalized current	0.0171 and 0.0283 and 0.024
CO/N=C(\C(=O)N[C@@H]1C(=O)N2C(C(=O)[O-])=C(C[N+]3(C)CCCC3)CS[C@H]12)c1csc(N)n1	beta-lactamase RAD-1 (Riemerella anatipestifer)	substrate, continuous spectrophotometric hydrolysis	–	30 °C	–	Km	603 ± 89 µM
CN(C)CCC(=O)Nc1ccc([C@H]2[C@@H](F)[C@@H](F)C[C@@H](F)[C@H]2F)cc1	–	liver microsome stability	cynomolgus liver microsomes	1 µM	–	hepatic clearance	6.3 mL/min/kg
CC[C@H](C)[C@@H]1NC(=O)[C@H]([C@@H](C)O)NC(=O)[C@@H]2CCCN2C(=O)[C@H](CC(C)C)NC(=O)[C@H](Cc2ccc(O)cc2)NC(=O)CSC[C@@H](C(N)=O)NC(=O)[C@H](CC(C)C)NC(=O)[C@@H]2CCCN2C(=O)[C@H](Cc2c[nH]cn2)NC(=O)[C@H](Cc2c[nH]c3ccccc23)NC(=O)[C@H](CC(C)C)NC(=O)[C@H](Cc2c[nH]cn2)NC(=O)CNC(=O)[C@H](C(C)C)NC(=O)CNC(=O)[C@H]([C@@H](C)O)NC1=O	Vacuolar protein sorting-associated protein 29 (VPS29, Homo sapiens, UniProt Q9UBQ0)	binding, ITC	–	25 °C, protein alone	–	ΔG	-8.4 ± 0.06 kcal/mol
Nc1nc2c(ncn2[C@@H]2O[C@H](COP(=O)(O)OP(=O)(O)O)[C@@H](OP(=O)(O)OP(=O)(O)O)[C@H]2O)c(=O)[nH]1	Hypoxanthine phosphoribosyltransferase (hpt, Escherichia coli, UniProt P0A9M2)	ITC	–	concentration not given	–	binding stoichiometry	0.97 ± 0.03
COc1cc(N2CCC(N3CCN(C)CC3)CC2)ccc1Nc1ncc(Cl)c(Nc2ccccc2P(C)(C)=O)n1	ALK tyrosine kinase receptor/Echinoderm microtubule-associated protein-like 4 (Homo sapiens, UniProt Q9HC35+Q9UM73)	degrader, immunoblotting, measured: ALK tyrosine kinase receptor/Echinoderm microtubule-associated protein-like 4	Ba/F3 EML4-ALK	concentration not given, 3 h, unit not given	baseline: untreated	protein level	0.971 and 1.12
COc1cccc2c1C(=O)c1c(O)c3c(c(O)c1C2=O)C[C@@](O)(C(=O)CO)C[C@@H]3O[C@H]1C[C@H](NC(=O)[C@@H]2CCCN2C(=O)CNC(=O)[C@@H](N)CC(C)C)[C@H](O)[C@H](C)O1	–	–	healthy mouse, plasma	intravenous, 23.6 mg/kg PhAc-ALGP-Dox	–	AUC	0.09 µM·h
C=CC(=O)N1CCC(C(=O)NCC(=O)N2CCN(c3nc(-c4cnc(N)nc4C(F)F)nc(N4CCOCC4)n3)CC2)CC1	STK32B (Homo sapiens, UniProt Q9NY57)	KINOMEscan	–	1 µM	–	remaining binding	93%
CC[C@H](C)[C@H](NC(=O)[C@H](Cc1ccccc1)NC(=O)[C@H](CCC(=O)O)NC(=O)[C@H](CCCNC(=N)N)NC(=O)[C@H](C)NC(=O)[C@H](C)NC(=O)[C@H](CCC(N)=O)NC(=O)[C@H](CCC(=O)O)NC(=O)[C@H](CCC(=O)O)NC(=O)[C@H](CC(C)C)NC(=O)[C@H](Cc1ccc(O)cc1)NC(=O)[C@H](CO)NC(=O)[C@H](CO)NC(=O)[C@@H](NC(=O)[C@H](CC(=O)O)NC(=O)[C@H](CO)NC(=O)[C@@H](NC(=O)[C@H](Cc1ccccc1)NC(=O)[C@@H](NC(=O)CNC(=O)[C@H](CCC(=O)O)NC(=O)[C@H](C)NC(=O)CCc1cnc[nH]1)[C@@H](C)O)[C@@H](C)O)C(C)C)C(=O)N[C@@H](C)C(=O)N[C@@H](Cc1c[nH]c2ccccc12)C(=O)N[C@@H](CC(C)C)C(=O)N[C@H](C(=O)N[C@@H](CCCCNc1c(NCCCCCN(O)C(=O)CCC(=O)NCCCCCN(O)C(=O)CCC(=O)NCCCCCN(O)C(C)=O)c(=O)c1=O)C(=O)NCC(=O)N[C@@H](CCCNC(=N)N)C(=O)N[C@@H](CCCCNc1c(NCCCCCN(O)C(=O)CCC(=O)NCCCCCN(O)C(=O)CCC(=O)NCCCCCN(O)C(C)=O)c(=O)c1=O)C(=O)NCC(=O)NCC(=O)N[C@@H](CO)C(=O)N[C@@H](CCCCNC(=O)COCCOCCNC(=O)COCCOCCNC(=O)CC[C@H](NC(=O)CCCCCCCCCCCCCCCCC(=O)O)C(=O)O)C(=O)O)C(C)C	GLP1R	agonist, CRE luciferase reporter	BHK cells	metal-free DFO conjugate, together with: 0% HSA	baseline: parent peptide	fold potency loss	8.4
C[C@@H]1CCO[C@H]2Cn3cc(C(=O)NCc4ccc(F)cc4F)c(=O)c(O)c3C(=O)N12	SLC22A3 (Homo sapiens, UniProt O75751)	transporter uptake, inhibitor, measured: [14C]MPP+ uptake	MDCK-II transfected with OCT3	up to 100 µM, together with: [14C]MPP+ 2 µM	–	inhibition	no inhibition

Repeated from above:
SMILES	target or system	test	system	conditions	how to read	measurement	value
CN(C)CCC(=O)Nc1ccc([C@H]2[C@@H](F)[C@@H](F)C[C@@H](F)[C@H]2F)cc1	–	liver microsome stability	cynomolgus liver microsomes	1 µM	–	hepatic clearance	6.3 mL/min/kg
CO/N=C(\C(=O)N[C@@H]1C(=O)N2C(C(=O)[O-])=C(C[N+]3(C)CCCC3)CS[C@H]12)c1csc(N)n1	beta-lactamase RAD-1 (Riemerella anatipestifer)	substrate, continuous spectrophotometric hydrolysis	–	30 °C	–	Km	603 ± 89 µM
CC1(C)CN(CCCCC(=O)N[C@@H](CCCCNC(=O)CCCCCCC(=O)NCCCC[C@H](NC(=O)N[C@@H](CCC(=O)O)C(=O)O)C(=O)O)C(=O)O)CC[N]2CC(C)(C)[S][Tc]2(=[O])[S]1 (stereo partly drawn) [technetium-99m labelled]	FOLH1 (Homo sapiens, UniProt Q04609)	saturation binding	LNCaP	–	–	Bmax	9 µmol/mg
